Assay results pooled from the literature.
Compare with care: the assays were run in different laboratories. Numbers after ± are the reported error.
Organism: Staphylococcus aureus

SMILES | strain | medium | dose | tested at | time | temperature | inhibition zone diameter [mm]
Cn1c(SCCN2CCCCC2)nnc1C12CC3CC(CC(C3)C1)C2 | IFO 3060 | – | 200 µg/disc | – | 24 h | 37 °C | 15
Cc1ncc([N+](=O)[O-])n1CCOCc1nnc(SCC(=O)c2ccc(F)cc2)o1 | – | DMSO | – | 60 µg/mL | 24 h | 37 °C | 15 to 20
CCN1CCN(Cn2nc(C34CC5CC(CC(C5)C3)C4)n(-c3ccccc3)c2=S)CC1 | IFO 3060 | – | 200 µg/disc | – | 24 h | 37 °C | 15
CC(=NNC(=N)N)c1nnn(-c2ccc(C#CC3(O)CCCCC3)cc2)c1C | ATCC 43300 MRSA | – | – | concentration not given | – | – | 33.3 ± 0.47
Cc1cc(O)c2c(c1)C(=O)c1cc3oc(=O)cc(-c4ccccc4)c3c(O)c1C2=O | MTCC 96 | – | 100 µg/disc | – | – | – | 8
CC(=O)[O-].O.O.O.O.[Mn+2].[O-]c1ccc(Br)cc1C=NCCN1CCOCC1 | – | – | 20 µL of 100 µM per disc | – | – | – | 13
COc1ccccc1N1CCN(Cn2nc(C34CC5CC(CC(C5)C3)C4)n(-c3ccccc3)c2=S)CC1 | IFO 3060 | – | 200 µg/disc | – | 24 h | 37 °C | 22
COc1ccc(C(=O)CSc2nnc(COCCn3c([N+](=O)[O-])cnc3C)o2)cc1F | – | DMSO | – | 60 µg/mL | 24 h | 37 °C | ≥ 20
Cc1cc(O)cc2c1C(=O)c1c(cc3oc(=O)cc(-c4ccccc4)c3c1O)C2=O | MTCC 96 | – | 100 µg/disc | – | – | – | 8
Cc1ncc([N+](=O)[O-])n1CCOCc1nnc(SCC(=O)c2ccc(O)cc2)o1 | – | DMSO | – | 60 µg/mL | 24 h | 37 °C | 10 to 15
Clc1ccc(CSc2nnc(C34CC5CC(CC(C5)C3)C4)n2-c2ccccc2)cc1 | IFO 3060 | – | 200 µg/disc | – | 24 h | 37 °C | 19
CCOC(=O)C1=C(C)NC2=C(C(=O)CC(C)(C)C2)C1c1ccc(OCC(=O)NN=Cc2cccc([N+](=O)[O-])c2)cc1OCC(=O)NN=Cc1cccc([N+](=O)[O-])c1 (stereo not shown) | 6538P | – | – | concentration not given | 24 h | 37 °C | 7.3 ± 0.3
Cc1c2c(cc3oc(=O)cc(-c4ccccc4)c13)C(=O)c1cccc(O)c1C2=O | MTCC 96 | – | 100 µg/disc | – | – | – | 8

A few entries again:
SMILES | strain | medium | dose | tested at | time | temperature | inhibition zone diameter [mm]
Cn1c(SCCN2CCCCC2)nnc1C12CC3CC(CC(C3)C1)C2 | IFO 3060 | – | 200 µg/disc | – | 24 h | 37 °C | 15
Cc1ncc([N+](=O)[O-])n1CCOCc1nnc(SCC(=O)c2ccc(F)cc2)o1 | – | DMSO | – | 60 µg/mL | 24 h | 37 °C | 15 to 20
